Measurements collected from several papers.
Each line is one published result; not all experiments were run side by side. Numbers after ± are the reported error.
MPO mature: MPO mature (Homo sapiens, UniProt P05164)
Chain of UniProt P05164 (whole entry, looked up): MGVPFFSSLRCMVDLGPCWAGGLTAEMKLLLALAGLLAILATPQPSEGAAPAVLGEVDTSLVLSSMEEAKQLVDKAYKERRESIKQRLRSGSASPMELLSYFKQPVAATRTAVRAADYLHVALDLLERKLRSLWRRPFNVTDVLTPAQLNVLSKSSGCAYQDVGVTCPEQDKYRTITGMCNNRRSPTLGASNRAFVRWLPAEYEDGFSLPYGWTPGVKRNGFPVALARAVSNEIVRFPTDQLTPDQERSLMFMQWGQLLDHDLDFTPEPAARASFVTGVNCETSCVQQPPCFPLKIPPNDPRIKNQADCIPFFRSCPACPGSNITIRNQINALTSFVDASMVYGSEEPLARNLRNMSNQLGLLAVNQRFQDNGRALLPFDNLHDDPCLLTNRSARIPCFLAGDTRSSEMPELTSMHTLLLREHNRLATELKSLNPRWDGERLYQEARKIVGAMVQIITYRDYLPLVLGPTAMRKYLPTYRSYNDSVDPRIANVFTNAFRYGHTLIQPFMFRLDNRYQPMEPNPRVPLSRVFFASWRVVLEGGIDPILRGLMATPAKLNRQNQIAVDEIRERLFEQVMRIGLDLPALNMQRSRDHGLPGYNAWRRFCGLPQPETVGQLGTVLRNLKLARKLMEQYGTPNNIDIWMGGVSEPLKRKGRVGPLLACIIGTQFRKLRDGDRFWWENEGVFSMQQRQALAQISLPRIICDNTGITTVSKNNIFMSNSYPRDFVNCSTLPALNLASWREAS
KPC-2: KPC-2 (Klebsiella pneumoniae, UniProt Q9F663)
PPIA: PPIA (Homo sapiens, UniProt P62937)
T1: EutB/EutC (Salmonella enterica serovar Typhimurium); chain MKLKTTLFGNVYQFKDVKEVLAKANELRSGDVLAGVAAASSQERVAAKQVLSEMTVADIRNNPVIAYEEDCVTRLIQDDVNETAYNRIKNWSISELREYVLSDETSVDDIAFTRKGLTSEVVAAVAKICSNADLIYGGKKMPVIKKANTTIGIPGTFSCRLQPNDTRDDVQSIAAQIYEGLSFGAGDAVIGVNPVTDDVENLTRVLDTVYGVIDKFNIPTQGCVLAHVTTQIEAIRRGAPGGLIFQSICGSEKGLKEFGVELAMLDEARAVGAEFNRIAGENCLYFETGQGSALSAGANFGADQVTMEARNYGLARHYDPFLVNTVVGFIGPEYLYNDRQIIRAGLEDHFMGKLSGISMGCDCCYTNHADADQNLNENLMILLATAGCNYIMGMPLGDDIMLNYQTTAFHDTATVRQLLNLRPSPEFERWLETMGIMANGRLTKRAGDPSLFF; chain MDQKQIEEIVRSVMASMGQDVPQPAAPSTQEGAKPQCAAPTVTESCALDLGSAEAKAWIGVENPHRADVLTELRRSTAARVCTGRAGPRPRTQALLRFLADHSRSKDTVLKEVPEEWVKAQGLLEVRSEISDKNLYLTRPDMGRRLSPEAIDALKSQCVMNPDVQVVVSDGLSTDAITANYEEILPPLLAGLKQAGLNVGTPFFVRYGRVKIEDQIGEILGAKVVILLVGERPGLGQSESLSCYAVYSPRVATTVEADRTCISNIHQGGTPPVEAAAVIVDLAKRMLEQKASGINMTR
B1: PduA 2-94 (Salmonella enterica, UniProt P0A1C7); chain QQEALGMVETKGLTAAIEAADAMVKSANVMLVGYEKIGSGLVTVIVRGDVGAVKAATDAGAAAARNVGEVKAVHVIPRPHTDVEKILPKGISQ
B2: blaNDM-1 39-270 (Klebsiella pneumoniae, UniProt C7C422); chain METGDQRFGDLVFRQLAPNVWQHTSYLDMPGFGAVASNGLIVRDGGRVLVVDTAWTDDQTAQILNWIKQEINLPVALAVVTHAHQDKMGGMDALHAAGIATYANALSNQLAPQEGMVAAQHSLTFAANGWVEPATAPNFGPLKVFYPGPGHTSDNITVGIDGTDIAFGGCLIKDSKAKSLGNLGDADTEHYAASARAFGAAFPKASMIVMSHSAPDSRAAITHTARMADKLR
Chain of UniProt Q13133 (whole entry, looked up): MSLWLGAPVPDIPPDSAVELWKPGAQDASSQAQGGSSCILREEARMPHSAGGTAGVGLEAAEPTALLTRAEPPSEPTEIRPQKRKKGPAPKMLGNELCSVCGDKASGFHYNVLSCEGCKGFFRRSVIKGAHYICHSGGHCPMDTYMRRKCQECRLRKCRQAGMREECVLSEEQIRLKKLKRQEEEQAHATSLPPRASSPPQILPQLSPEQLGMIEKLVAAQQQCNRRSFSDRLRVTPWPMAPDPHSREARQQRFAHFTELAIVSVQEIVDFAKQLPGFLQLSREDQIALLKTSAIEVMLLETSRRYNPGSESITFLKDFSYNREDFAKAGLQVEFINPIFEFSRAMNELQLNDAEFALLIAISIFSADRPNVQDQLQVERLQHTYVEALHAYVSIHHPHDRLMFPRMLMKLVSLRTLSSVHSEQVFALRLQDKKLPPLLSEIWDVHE
Chain of UniProt P37449 (whole entry, looked up): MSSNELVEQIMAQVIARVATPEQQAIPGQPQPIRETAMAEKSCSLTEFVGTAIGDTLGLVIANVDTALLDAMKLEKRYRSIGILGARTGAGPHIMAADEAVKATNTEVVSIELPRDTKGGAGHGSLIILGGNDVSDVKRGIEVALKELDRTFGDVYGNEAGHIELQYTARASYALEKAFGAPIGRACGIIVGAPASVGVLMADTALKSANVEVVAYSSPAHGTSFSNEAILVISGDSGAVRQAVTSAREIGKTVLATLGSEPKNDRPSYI

| Molecule | target or system | assay | test system | conditions | scale | endpoint | value |
| --- | --- | --- | --- | --- | --- | --- | --- |
| SPIN mature L49A (Staphylococcus aureus) | MPO mature | MPO peroxidase activity, inhibitor |  | L49A variant |  | IC50 | 37.8 nM |
| aspterric acid |  | root length | Arabidopsis thaliana Col-0 seeds | 3.13 µg/mL, 7 days, dark |  | inhibition | 8.8% |
| CDGYSSTGFYRGSAHLWFC (MBP/BLIP cyclic peptide (Streptomyces clavuligerus); cyclic) | KPC-2 | SPR | peptide |  |  | Kd | 2100 ± 230 nM |
| B1 (PduA 2-94) | PduB (Salmonella enterica Typhimurium LT2, UniProt P37449) | cross-linking |  |  |  | binding | binds |
| eutA (Salmonella enterica, UniProt Q9ZFV2) | T1, EutB/EutC (Salmonella enterica serovar Typhimurium) | SEC |  |  |  | binding | binds |
| NS5A mature (hepatitis C virus, UniProt Q9WMX2) | PPIA | luciferase, two-hybrid | CHO |  | reference: VP16 alone, higher = stronger interaction | specific window | 2.9 fold |
| CWSEYYPAYC (BLIP cyclic peptide (Streptomyces clavuligerus); C-terminal amide, cyclic, disulfide) | KPC-2 | BLI | peptide |  |  | koff | 0.00035 s⁻¹ |
| SNLNTDMGNGIASNRWINYQQFIQTLEKAIEQHRLQLTQWTQKVDLALKSW (fliJ 51-101 (Salmonella enterica, UniProt P0A1K1)) | fliT 1-95 (Salmonella enterica, UniProt P0A1N2) | solution NMR structure |  |  |  | binding | binds |
| PR2 C-terminal nonapeptide fragment (HIV-2) | HIV-2 protease mature (HIV-2) | hydrolysis of chromogenic substrate, competitive inhibitor, enzyme inhibition kinetics |  |  |  | Ki | 17000 nM |
| CAGGIFHSLALKC (BLIP-II cyclic peptide (Streptomyces); C-terminal amide, cyclic, disulfide) | KPC-2 | BLI | peptide |  |  | Kd | 240 ± 6 nM |
| insulin human |  | item: GLB1 mRNA | uninfected mouse, brain | i.p., dose not given | reference: PBS | fold change | 0.992 |
| B2 (blaNDM-1 39-270) | prc K477A (Escherichia coli, UniProt P23865) | SEC |  |  |  | binding | binds |
| abamectin | NR1H3 (Homo sapiens, UniProt Q13133) | receptor activity, inhibitor | cells |  |  | IC50 | 6220 ± 7170 nM |
| SPIN mature Y75A (Staphylococcus aureus) | MPO mature | MPO peroxidase activity, inhibitor |  | L49A variant |  | IC50 | 9.6 nM |
| NS5A fragment (hepatitis C virus) | PPIA | AlphaScreen |  |  | higher = stronger interaction | AlphaLISA signal | > 13000 RLU |
| CDYYAYATFGFTSAAADAKVC (MBP/BLIP cyclic peptide (Streptomyces clavuligerus); cyclic) | KPC-2 | SPR | peptide |  |  | koff | 0.00088 s⁻¹ |

A few entries again:
| Molecule | target or system | assay | test system | conditions | scale | endpoint | value |
| --- | --- | --- | --- | --- | --- | --- | --- |
| eutA (Salmonella enterica, UniProt Q9ZFV2) | T1, EutB/EutC (Salmonella enterica serovar Typhimurium) | SEC |  |  |  | binding | binds |
| SPIN mature L49A (Staphylococcus aureus) | MPO mature | MPO peroxidase activity, inhibitor |  | L49A variant |  | IC50 | 37.8 nM |
